Results of several laboratories.
Lines come from different studies, so protocols differ. Several values in a cell are separate wells, animals, samples, runs or records. ± marks the error that the study gave.
UCHL1: Ubiquitin carboxyl-terminal hydrolase isozyme L1 (UCHL1, Homo sapiens, UniProt P09936)
Voltage-dependent P/Q-type calcium channel subunit alpha-1A: Voltage-dependent P/Q-type calcium channel subunit alpha-1A (Homo sapiens, UniProt O00555)

SMILES	target	test	test system	setting	measurement	value
COc1ccc(NC(=O)C(C#N)=Cc2cccc(O)c2)cc1Cl	UCHL1	covalent, intact protein LC-MS		12.5 µM	labelling	36.6%
Cc1cc(-c2ccnc3[nH]cc(F)c23)cc(F)c1[C@@]1(O)[C@H](C)CN(C(=O)CN)C[C@@H]1C	LATS1 (Homo sapiens, UniProt O95835)	ATP probe binding, KiNativ, refers to: Lys2 site	HEK293T cell lysate	10 µM	inhibition	94.5%
OO	Histone acetyltransferase RTT109, with Vps75 (Saccharomyces cerevisiae, UniProt Q07794)	enzyme activity, inhibitor		250 µM, Rtt109-Vps75 complex, 1 mM DTT, with: [3H]acetyl-CoA	inhibition	3 ± 3%
Cc1cc(-c2ccnc3[nH]cc(F)c23)cc(F)c1[C@@]1(O)[C@H](C)CN(C2CCS(=O)(=O)CC2)C[C@@H]1C	LATS2 (Homo sapiens, UniProt Q9NRM7)	ATP probe binding, KiNativ, refers to: Lys2 site	HEK293T cell lysate	1 µM	inhibition	84.8%
O=C1NCCN1CCN1CCC(c2cn(-c3ccc(F)cc3)c3ccc(Cl)cc23)CC1	Voltage-dependent P/Q-type calcium channel subunit alpha-1A	ion current, antagonist	HEK293	10 µM	inhibition	77%
[2H]c1cc(C)c(NC(=O)c2cnc(Nc3cc(N4CCCCC4)nc(C)n3)s2)c(Cl)c1	PDGFRA (Homo sapiens, UniProt P16234, D842V)			0.01 µM	inhibition	< 30%
O=C(O)C(O)C(O)C(=O)O.c1cnc2cc3c(cc2n1)[C@@H]1CNC[C@H]3C1	Voltage-dependent P/Q-type calcium channel subunit alpha-1A	ion current, antagonist		10 µM	inhibition	-5%
CC[C@@H]1[C@H](F)C(=O)N[C@@H]1COc1nccc2cc(C(N)=O)c(OC)cc12	STK38L (Homo sapiens, UniProt Q9Y2H1)	ATP-site probe binding, ActivX profiling	THP-1 cell lysate	0.2 mM, Lys2 site	inhibition	18.4%
O=C1NC(=O)C(c2ccccc2)(c2ccccc2)N1	Voltage-dependent P/Q-type calcium channel subunit alpha-1A	ion current, antagonist	HEK293	30 µM	inhibition	27%
COc1cc(CN(C(=O)CCl)C2CCCOC2)ccc1C (stereo not drawn)	UCHL1	covalent, intact protein LC-MS		12.5 µM	labelling	9.93%
O=C(Nc1cccc2c(=O)cc(-c3nnn[nH]3)oc12)c1ccc(OCCCCc2ccccc2)cc1	LRRC8A/LRRC8C (Homo sapiens, UniProt Q8IWT6+Q8TDW0, Y124F/Y126F)	ion current, whole-cell patch clamp	HCT LRRC8-/- cells	1 µM, +100 mV, Y124F/Y126F heteromers	inhibition	-0.301% and 43% and 9.05% and -10.2% and -5.89% and -5.04%
COc1ccc(F)cc1C(=O)NCc1ccc(-c2nn([C@@H](C)C(F)(F)F)c(N)c2C(N)=O)cc1	TEC (Homo sapiens, UniProt P42680)	target engagement, competitive chemoproteomics	human PBMCs	0.01 µM	inhibition	23%

Excerpt of the above:
SMILES	target	test	test system	setting	measurement	value
O=C1NCCN1CCN1CCC(c2cn(-c3ccc(F)cc3)c3ccc(Cl)cc23)CC1	Voltage-dependent P/Q-type calcium channel subunit alpha-1A	ion current, antagonist	HEK293	10 µM	inhibition	77%
OO	Histone acetyltransferase RTT109, with Vps75 (Saccharomyces cerevisiae, UniProt Q07794)	enzyme activity, inhibitor		250 µM, Rtt109-Vps75 complex, 1 mM DTT, with: [3H]acetyl-CoA	inhibition	3 ± 3%
